Experimental data collected from several papers.
± marks the error that the study gave.

SMILES | test | system | conditions | scale | endpoint | value
Clc1cccc(-c2cccc(Cl)c2)c1 | – | Sprague-Dawley rats, male, lung, liver and serum | inhalation, 106 µg/m3 | – | half-life | 2 h
CCCC(=O)OCSc1ccccc1C(=O)NCCC(N)=O | – | Sprague-Dawley rat, male, plasma | oral, 1000 mg/kg | – | half-life | 0.5 ± 0.1 h
Nc1ncn([C@@H]2O[C@H](CO)[C@@H](O)[C@H]2O)c(=O)n1 | – | male Rowett nude rat, blood | inhaled vs intraperitoneal, 0.6 vs 2 mg/kg | relative to: aerosol over intraperitoneal | half-life ratio | 2.9 fold
O=C(NCCS)c1cccc(C(=O)NCCS)c1 | – | rat, Sprague-Dawley, male, plasma | intravenous, 1 mg/kg | – | half-life | 5.83 h
CN1CC[C@@]23CCCC[C@@H]2[C@@H]1Cc1ccc(O)cc13 | – | Wistar rat, both sexes, plasma | oral, 5 mg/kg DEM, DEM 2 h after pretreatment, with: TCE 400 mg/kg single pretreatment | – | half-life | 4.51 ± 2.62 h
CN1C(=O)CC(=O)N(c2ccccc2)c2cc(Cl)ccc21 | – | Sprague Dawley rat, brain | intraperitoneal, 17 mg/kg | – | half-life | 1.54 h
Cc1cccc(C)c1OCC(=O)N[C@@H](Cc1ccccc1)[C@@H](O)C[C@H](Cc1ccccc1)NC(=O)[C@H](C(C)C)N1CCCNC1=O | – | male Sprague-Dawley rats, plasma | oral, 160 mg/kg, with: QPD 6 g/kg oral, 30 min before | – | half-life | 2.66 h
COC(=O)COC(=O)c1cncn1[C@H](C)c1ccccc1 | metabolic stability | Sprague-Dawley rat, pooled blood | – | – | half-life | < 0.000556 h
NC1(c2ccccc2Cl)CCCCC1=O (racemic) | – | male Wistar rats, plasma | intraperitoneal, 40 mg/kg single dose | – | half-life | 6.2 ± 3.1 h
CC(C)C[C@H](NC(=O)[C@@H](NC(=O)[C@H](Cc1ccc(O)cc1)NC(=O)[C@@H]1CCCN1C(=O)[C@H](CCCNC(=N)N)NC(=O)[C@@H](C)CCC[N+](C)(C)C)C(C)(C)C)C(=O)O | refers to: NTR-1 binding activity | rat, plasma | iv, 1 mg/kg | – | half-life | 0.407 h
C[C@H]1CNCCc2ccc(Cl)cc21 | – | male Sprague-Dawley rat, plasma | subcutaneous, pimavanserin 1 + lorcaserin 1 mg/kg, pimavanserin 15 min earlier | – | half-life | 1.71 ± 0.07 h
COc1cc2c3c(c4cc(OC)c(OC)cc4c2cc1OC)CN1CCC[C@@H]1C3 | – | Sprague-Dawley rats, male | intravenous, dose not given | – | half-life | ~4 h
CC(C)[C@@H](CC1CCCCC1)NC(=O)[C@H]1Cc2ccc(C(N)=O)cc2CN1 | – | Sprague-Dawley rat, male | 5 mg/kg | – | half-life | 2.3 h
Oc1ccc(-c2cccc(Cl)c2)cc1Cl | – | Sprague-Dawley rats, male, liver | inhalation, 106 µg/m3, metabolite of inhaled precursor | – | half-life | 2.4 h

Excerpt of the above:
SMILES | test | system | conditions | scale | endpoint | value
Cc1cccc(C)c1OCC(=O)N[C@@H](Cc1ccccc1)[C@@H](O)C[C@H](Cc1ccccc1)NC(=O)[C@H](C(C)C)N1CCCNC1=O | – | male Sprague-Dawley rats, plasma | oral, 160 mg/kg, with: QPD 6 g/kg oral, 30 min before | – | half-life | 2.66 h
